Measured values pooled from the literature.
Numbered parts are unrelated; each lists some results of a single study. Positions count from the first letter of the parent shown.

Set 1
Target: Interferon regulatory factor 3, full length, phosphomimetic (IRF3, Homo sapiens, UniProt Q14653, residues 1-427, S386D/S396D/S398D/S402D/T404D/S405D)
Method: protein-binding microarray
Form: double-stranded DNA, one strand shown
Sample: in vitro
Tested at: 2540 nM top
Notes: 60-bp whole probe
Together with: salmon DNA 0.4 mg/ml
Baseline: random background probes
Reading: higher = stronger binding
All sequences stand within: GCCTAGCAC … GTCTTGATTCGCTTGACGCTGCTG
Residues (chain): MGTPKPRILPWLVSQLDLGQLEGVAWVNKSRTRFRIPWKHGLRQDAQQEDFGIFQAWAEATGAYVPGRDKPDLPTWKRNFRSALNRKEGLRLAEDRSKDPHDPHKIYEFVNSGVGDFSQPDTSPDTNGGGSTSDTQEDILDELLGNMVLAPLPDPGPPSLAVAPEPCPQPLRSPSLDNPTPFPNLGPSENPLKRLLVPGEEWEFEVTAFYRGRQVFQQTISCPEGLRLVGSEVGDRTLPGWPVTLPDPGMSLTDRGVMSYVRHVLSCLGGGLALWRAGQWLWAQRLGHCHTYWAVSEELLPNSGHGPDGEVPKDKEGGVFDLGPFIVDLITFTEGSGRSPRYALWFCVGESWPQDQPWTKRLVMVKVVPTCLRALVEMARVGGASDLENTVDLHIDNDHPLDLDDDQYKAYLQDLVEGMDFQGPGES
| Oligonucleotide | fitted relative affinity |
| --- | --- |
| GACGATTCCACTTTCGAGACGTGCTAG | 2.63 z-score |
| GGCAGGAATAAAGGAGCAGCGTGCTAG | -0.832 z-score |
| GACGGTATCTGGTTTCGGGACGTGCTA | 2.53 z-score |
| TTAGGTATGGGTCTCGGTTAGTGCTAG | -0.394 z-score |
| ATAGGTCTCGGTCTCGGTTAGTGCTAG | 1.14 z-score |
| TTAGGACTGGTTTTCCTTTAGTGCTAG | 2.36 z-score |
| TTAGGTCTCGGTTACGGTTAGTGCTAG | 1 z-score |
| TTACATATGTTTTTCATTTTGTGCTAG | 1.23 z-score |
| TTAGGTCTCCGACTGGGTTAGTGCTAG | 0.245 z-score |
| TTAGCACTGGGGTTTCGATTAGTGCTA | 0.889 z-score |
| GACGGACTGGATTATCGGGACGTGCTA | -0.326 z-score |
| TCAACTCTCTGGGCTGTGACTGTGCTA | -0.142 z-score |
| GACGGTTCCGACTATCGGGACGTGCTA | 1.92 z-score |
| GCCGGACTGGGACTGGGGACGTGCTAG | -0.567 z-score |
| TTAGCTATCCTACTGCTTTAGTGCTAG | 0.812 z-score |
| TCACTTCTCCTCTAGGTTACTGTGCTA | 1.92 z-score |
| TTAGGACCGGGACTGGGTTAGTGCTAG | -0.57 z-score |

Set 2
Target: Histone acetyltransferase KAT6A, winged helix 1, GST fusion (KAT6A, Homo sapiens, UniProt Q92794, residues 1-85)
Method: protein binding microarray
Form: double-stranded DNA, one strand shown
Sample: in vitro
Tested at: not given
Notes: 8-mer, flanks averaged, mean of 2 arrays, mostly near background
Baseline: not given
Reading: higher = stronger binding
Target sequence (chain): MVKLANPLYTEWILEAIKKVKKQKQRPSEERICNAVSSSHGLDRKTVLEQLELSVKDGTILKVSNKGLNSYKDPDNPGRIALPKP
| Oligonucleotide | E-score |
| --- | --- |
| GCCCAGGA | -0.263 |
| AGGCTACA | -0.188 |
| CAGCACTG | -0.0375 |
| CCGGTGCG | 0.322 |
| AGGTTGGG | -0.165 |
| CTCGAAGA | -0.17 |
| GTTATCAA | -0.144 |
| ATATTCTG | -0.0588 |
| AGCACTTC | -0.121 |
| GATTCGTA | -0.0184 |
| GTCCGGAC | 0.34 |
| CCCTATAA | -0.243 |
| GTTGCTAA | -0.119 |
| CGCTTAGA | 0.117 |
| CCCGTGCA | 0.225 |
| ACCGCAGG | 0.152 |
| GTTCGTCA | -0.0178 |
| CTTCACGA | -0.0883 |
| AATCTTTC | -0.125 |
| AGATCAGC | 0.0794 |
| CCTTAAAA | -0.244 |
| ATGTCTTC | -0.163 |
| GAATAGGC | -0.146 |
| GCGCTCTA | 0.257 |
| CCTCGAAG | -0.109 |

Set 3
Target: Ras GTPase-activating protein-binding protein 1, RRM domain (G3BP1, Homo sapiens, UniProt Q13283)
UniProt Q13283, sequence (whole entry, looked up): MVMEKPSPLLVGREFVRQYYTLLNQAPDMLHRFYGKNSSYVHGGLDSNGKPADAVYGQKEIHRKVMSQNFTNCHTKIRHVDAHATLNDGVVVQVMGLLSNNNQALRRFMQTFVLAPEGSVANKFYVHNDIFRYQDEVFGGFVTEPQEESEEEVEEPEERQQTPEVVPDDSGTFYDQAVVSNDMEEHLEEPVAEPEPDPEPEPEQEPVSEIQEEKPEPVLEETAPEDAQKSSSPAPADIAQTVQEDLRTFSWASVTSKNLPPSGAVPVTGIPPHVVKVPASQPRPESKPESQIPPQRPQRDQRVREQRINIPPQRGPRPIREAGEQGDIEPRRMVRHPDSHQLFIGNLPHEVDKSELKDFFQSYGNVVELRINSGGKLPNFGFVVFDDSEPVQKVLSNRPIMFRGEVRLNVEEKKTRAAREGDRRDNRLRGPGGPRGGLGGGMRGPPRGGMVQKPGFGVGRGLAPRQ
Method: RNA Bind-n-Seq
Form: RNA
Sample: in vitro
Tested at: 1 µM
Notes: whole 134-nt RNA, ends assumed
Together with: 150 mM KCl
Baseline: input library
Reading: higher = stronger binding
All sequences stand within: GGGAGUUCUACAGUCCGACGAUC … UGGAAUUCUCGGGUGUCAAGG
| Oligonucleotide | log2 enrichment |
| --- | --- |
| CAAGUCCUGUGCUACACAUCGUAUGUACCGAAUCGGGUGGGAAAAAGGGUUUGGGAAAGUAUUAUGUUACGCCGUUCGGAUCUGCACUUC | 0.82 |
| CAAGUCCUGUGCUACACAUCGUAUGUACCGAAUCGGUUUUUGGAAAGGUUUUUGGAAAGUAUUAUGUUACGCCGUUCGGAUCUGCACUUC | -0.333 |
| CACAGACAACACGCACCCACACAGACACAGAGGGAAGGGGUUGGGAUGGGGACAGGGUGCACAGCAGGUCGGGGUAGGACCCCAGCCCCU | -0.346 |
| UGGGAGGUGGAUUUUGUUUAUUUUUUUAGCUCAUUUCCAGGGGUGGGAAUUUUUUUUUAAUAUGUGUCACGAAUAAAGUUGUUUUUGAAA | 1.89 |
| UAGUGAUGAAAAAUUUCUCCCUUCUAGGUUUCCCUUGGGGGCUUUGAAAUAACACCACCAGUGGUCUUAAGGUUGAAGUGUGGUUCAGGG | -0.274 |
| UUCAGUUAUUCAAGCGGAGAAAUGUUGCUACAGCAGAAGAAGAAACAGAAGAAGAAGUUAUGUCAGAUGGAGGCUUUCAUGAGGCUCAGA | -0.267 |
| CACAGACAACACGCACCCACACAGACACAGAGGGAAGUGGUUGGGAUGGGGACAGGGUGCACAGCAGGGCGGGGUAGGACCCCAGCCCCU | -0.0263 |
| ACCAUGCAGGUGGGCAUCUUUGGGAAGUGGGGCAAGGGGGGGAUAGGGAGGGGGGUAACACUUUGGGAACAGGUGGUGCCAGGUCGUUUC | 0.98 |
| CACAGACAACACGCACCAACACAGACACAGAGGGAAGGGGUUGGGAUGGGGACAGGGUGCACAGCAGGGCGGGGUAGGACCCCAGCCCCU | 0.381 |
| AAGUCCUGUGCUACACAUCGUAUGUACCGAAUCGGGUUUGGGGUUUGGGGUUUGGGAAAGUAUUAUGUUACGCCGUUCGGAUCUGCACUU | 0.499 |

Set 4
Target: CCNB1, cyclin fold, Cln2 fusion (human)
Method: yeast growth competition, sequencing
Sample: yeast
Notes: strong parent motif
Baseline: not given
Reading: higher = stronger binding
Starting sequence: PKN2 docking peptide (human); VSAVQKLDFSDTM
| Variant | normalised enrichment score |
| --- | --- |
| VSAVQKMDFSDTM [L7M] | 0.174 |
| VSASQKLDFSDTM [V4S] | 0.499 |
| DSAVQKLDFSDTM [V1D] | 2.17 |
| VSAVQKLCFSDTM [D8C] | 1.55 |
| VSAVQKLMFSDTM [D8M] | 1.69 |
| VSMVQKLDFSDTM [A3M] | 0.576 |
| VSAVQKLDFSDTV [M13V] | 1.86 |
| RSAVQKLDFSDTM [V1R] | 2.12 |
| VSAVQKLDYSDTM [F9Y] | 1.21 |
| VSAVQKLDFSPTM [D11P] | 1.17 |
| VSAVQKLDFLDTM [S10L] | 0.909 |
| VSAVQKLDFRDTM [S10R] | 1.03 |
| VEAVQKLDFSDTM [S2E] | 1.39 |
| VSAVQMLDFSDTM [K6M] | 1.25 |
| VSAVQKLDFSDTI [M13I] | 2.1 |
| VSAVQKLDFSDAM [T12A] | 2.07 |
| VSAVQKLDFSDTD [M13D] | 1.91 |
| VSAVQKLDFSDKM [T12K] | 1.26 |
| VSAVQKLDFSVTM [D11V] | 0.741 |

Some of these lines once more (set 2):
| Oligonucleotide | E-score |
| --- | --- |
| CGCTTAGA | 0.117 |
| CCCGTGCA | 0.225 |
| ACCGCAGG | 0.152 |
| GTTCGTCA | -0.0178 |
| CTTCACGA | -0.0883 |
| AATCTTTC | -0.125 |
| AGATCAGC | 0.0794 |
